# Measurements pooled from the literature.
# Parts stem from different laboratories: compare values within a part only.

# Study 1
# Target: RNA binding protein fox-1 homolog 2, RRM domain, GST-SBP tag (RBFOX2, Homo sapiens, UniProt O43251-10, residues 100-194)
# Technique: RNA Bind-n-Seq
# Molecule type: RNA
# Medium: in vitro
# Tested at: 365 nM
# Notes: natural RNA segment, single round, ends assumed
# Reference: no-protein control
# Reading: higher = stronger binding
# Construct (chain): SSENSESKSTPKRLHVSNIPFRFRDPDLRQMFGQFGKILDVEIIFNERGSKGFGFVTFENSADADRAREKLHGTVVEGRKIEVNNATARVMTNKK
Oligonucleotide,RBNS enrichment (R)
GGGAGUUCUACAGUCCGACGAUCCGUGGGGCCUUUCCUUCUCGGCUGGUUCUCUGUGACGGUGGCGUCGGCUCGCCUCUGCUCCUUUCAUCUAGAAAGAAGCCACUGACCCUGACAGCCCACGGCGGGUACACUGGAAUUCUCGGGUGCCAA,0.268
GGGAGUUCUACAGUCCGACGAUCUCUCCUUUGCAAAGGACAGUUUUGAAUGAAUUGUACCUCAAUAUGUUCUGGGACAGUGUCAAAAUGGAAUAACCUGGCAUAAAGCUGAAUUAUCUGAGGAAACUCAAUGGUGGAAUUCUCGGGUGCCAA,0.323
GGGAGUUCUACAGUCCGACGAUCUGUGUUUUAUUGUGGUAAUUAUGUUUUGUGAUUCAAACUUCUGUGUACUGGGUGAUGCACCCAUUGUGAUUGUGGAAGAUAGAAUUCAAUUUGAACUCAGGUUGUUUAUGUGGAAUUCUCGGGUGCCAA,1.01
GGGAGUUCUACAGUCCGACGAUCGCCAAUACACCCUACCUUGGACCUGUAUGAAACAAGGCUACCGACAUGUAUCCUUGCUCUCCAGAGAUGGCACUAGCCUCAAUCCAGCUUCCAUCUUUGUAUACACCUGCUGGAAUUCUCGGGUGCCAA,0.286
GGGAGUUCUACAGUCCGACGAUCUUCUAUUUCUUCUUAGUUAUUAUGUGCCACCUUCUUAGUUAUUAUGUGCCACCUCCCCUAUGAGUGACGUGUUUGAUCACUAGCAGAAUAGCAAGCAGAGUAUCAUUCAUUGGAAUUCUCGGGUGCCAA,0.776
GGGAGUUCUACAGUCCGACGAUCAGAAAUAUUAUCUAUUUUAUUACCUUGAAUAUUUAAUAUUUUUCACUGGGAGGUUUGAAGCUUACAAAAUGAGAAUGUGCCAUGCAUGAAGCAAAGGAUUCCAGGCUCCAUGGAAUUCUCGGGUGCCAA,20.6
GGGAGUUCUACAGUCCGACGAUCUUAAAGGUUUUCUCUAACUUCUCAAGUCCCUUGUUUUGUGUUGUGUCUGUGGGGAGGGGUUGUUUUGGGGUUGUUUUUGUUUUUUCUUGCCAGGUAGAUAAAACUGACAUUGGAAUUCUCGGGUGCCAA,3.75
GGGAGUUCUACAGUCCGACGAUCCGGCCCUCACAUCUGAAACUGGUUGCCGAGAGCCCUGAGCCAAGGCAAGGAUUUGCCAAAAAUGUUCUGGGGGCCCAGCAAAUGCAGGAGCCGACCUGGGGCUGCACAUCUGGAAUUCUCGGGUGCCAA,0.315

# Study 2
# Target: Sal-like protein 4, full length isoform A (SALL4, Homo sapiens, UniProt Q9UJQ4, residues 1-1053)
# Sequence of UniProt Q9UJQ4 (whole entry, looked up): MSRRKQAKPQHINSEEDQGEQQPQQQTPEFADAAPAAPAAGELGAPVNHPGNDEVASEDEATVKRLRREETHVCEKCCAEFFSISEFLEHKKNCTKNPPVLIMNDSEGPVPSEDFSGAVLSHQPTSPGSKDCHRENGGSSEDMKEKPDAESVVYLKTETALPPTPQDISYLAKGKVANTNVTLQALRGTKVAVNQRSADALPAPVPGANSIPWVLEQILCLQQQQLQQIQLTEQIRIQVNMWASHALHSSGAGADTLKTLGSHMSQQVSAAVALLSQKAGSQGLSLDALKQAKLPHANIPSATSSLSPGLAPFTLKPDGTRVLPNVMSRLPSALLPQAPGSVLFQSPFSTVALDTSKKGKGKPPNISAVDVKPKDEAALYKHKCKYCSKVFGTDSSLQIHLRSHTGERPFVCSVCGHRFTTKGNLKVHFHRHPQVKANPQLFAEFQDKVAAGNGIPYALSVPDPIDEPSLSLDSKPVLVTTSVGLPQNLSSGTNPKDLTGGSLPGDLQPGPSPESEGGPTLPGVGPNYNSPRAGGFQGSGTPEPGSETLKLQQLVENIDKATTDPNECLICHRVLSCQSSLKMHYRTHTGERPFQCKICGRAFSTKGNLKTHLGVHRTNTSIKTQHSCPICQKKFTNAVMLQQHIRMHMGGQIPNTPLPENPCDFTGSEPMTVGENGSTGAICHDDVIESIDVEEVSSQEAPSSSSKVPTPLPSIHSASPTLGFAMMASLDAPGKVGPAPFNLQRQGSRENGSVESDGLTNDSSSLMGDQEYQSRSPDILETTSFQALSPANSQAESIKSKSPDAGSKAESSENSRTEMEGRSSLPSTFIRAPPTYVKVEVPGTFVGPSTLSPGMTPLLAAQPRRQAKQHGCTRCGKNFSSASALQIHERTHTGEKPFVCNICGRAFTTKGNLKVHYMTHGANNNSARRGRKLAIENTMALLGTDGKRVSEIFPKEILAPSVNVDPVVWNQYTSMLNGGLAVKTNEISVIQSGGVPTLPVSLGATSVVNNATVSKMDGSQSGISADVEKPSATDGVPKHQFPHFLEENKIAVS
# Technique: universal PBM
# Molecule type: double-stranded DNA, one strand shown
# Medium: in vitro
# Tested at: 600 nM
# Notes: 8-mer, flanks averaged, mean of replicates
# Reading: higher = stronger binding
Oligonucleotide,E-score
CTTGGGGA,0.0168
CCCAAACG,-0.104
GACTTATA,0.3
CCTATCAA,0.0802
GAACTAAA,0.191
ATGAACAG,0.12
CTGAACTA,0.00542
AAACATGT,0.226
ATAAACCG,0.0674
CCCCCCTA,-0.261
CATGTTCA,0.107
AGATTCAA,0.134
CAAACCAC,-0.0384
GTCCACTA,0.0192
CTCGTTTC,-0.0147
ACACTGGT,-0.0105
CTATATTC,0.282

# Study 3
# Target: Histone acetyltransferase KAT6A, winged helix 2, GST fusion (KAT6A, Homo sapiens, UniProt Q92794, residues 85-181)
# Technique: protein binding microarray
# Molecule type: double-stranded DNA, one strand shown
# Medium: in vitro
# Tested at: not given
# Notes: 8-mer, flanks averaged, mean of 2 arrays, mostly near background
# Reference: not given
# Reading: higher = stronger binding
# Target sequence (chain): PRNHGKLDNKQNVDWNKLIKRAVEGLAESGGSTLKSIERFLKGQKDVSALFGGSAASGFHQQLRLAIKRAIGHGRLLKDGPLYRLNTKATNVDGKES
Oligonucleotide,E-score
CTAATAAA,0.0868
ATTTAGTC,0.00482
GAGGTCAC,0.0554
AGCTGTCC,-0.121
AGTCTCGA,-0.0724
AGGTAGAG,-0.103
AACCGCGC,-0.0297
ATGGCTCA,-0.171
ACCCGAAT,0.0418
GGCGGTAA,0.0953
ATGAACTG,0.0241
AGCCCCCA,-0.0455
AGGAGCTC,-0.102
AGTACTAA,-0.152
ACTAACCT,0.0124
CCTCAACA,0.246
ACGCCGCT,0.122
CTTGATAA,0.155
ATACGGTA,-0.0899
TCACCCGA,0.0894
ACATACAA,-0.074
GCTATTAC,-0.057
AGTGGGAG,0.0815
GTAATTAA,-0.152

# Study 4
# Target: RING finger protein unkempt homolog, zinc fingers 1-6, GST-SBP tag (UNK, Homo sapiens, UniProt Q9C0B0, residues 30-357)
# Sequence of UniProt Q9C0B0 (30-357, looked up): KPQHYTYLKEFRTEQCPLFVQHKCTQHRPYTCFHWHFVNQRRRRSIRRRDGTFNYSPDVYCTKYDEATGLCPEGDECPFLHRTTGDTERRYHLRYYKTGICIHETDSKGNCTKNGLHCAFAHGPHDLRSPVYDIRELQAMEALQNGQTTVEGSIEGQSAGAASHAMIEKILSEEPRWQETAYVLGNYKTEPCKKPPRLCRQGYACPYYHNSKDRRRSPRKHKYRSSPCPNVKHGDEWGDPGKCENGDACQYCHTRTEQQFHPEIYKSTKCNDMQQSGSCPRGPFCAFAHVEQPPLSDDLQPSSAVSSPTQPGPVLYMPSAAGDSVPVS
# Technique: RNA Bind-n-Seq
# Molecule type: RNA
# Medium: in vitro
# Tested at: not given
# Notes: RNA with constant flanks, ends assumed
# Reference: input RNA pool
# Reading: higher = stronger binding
Oligonucleotide,bound/input enrichment
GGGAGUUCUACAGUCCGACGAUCGUCUCCAUUUUGUCAGCCAUGGAGCUCAUUUGGAACCUGUGUGAGAUUCUCUUUAUUGAAGCCGCACCAGCUGGCCCUCUCCUCCUUCACCUUCUUGACUGGGUCCGACUGCACGUGUGCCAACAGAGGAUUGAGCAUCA,0.2 ratio
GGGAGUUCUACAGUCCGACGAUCUUGAUCGAGUAAUGAUUAUCUAAGUAACUGUUGGGGACUGUGGAUAAAUUAGCAGGAGGGCCGUUUAUGAGAGCUGGCUUCAGGACGCUCUGUCCUCUGGAAGGAGUUUGUCUUCUGUGUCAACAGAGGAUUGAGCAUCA,0.816 ratio
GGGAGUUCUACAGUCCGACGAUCGAGGAAUUUGGAGUAGUUUCAAAUACAAGAUUGAUUGCUGCUGCUACUUCUGUAUUAAAAACCCGAUUUUCAUAUGCCUUUCCAAAGGAAUUUCCUUAUAGGAUGAAUCAUAUAUUAGAACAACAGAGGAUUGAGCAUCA,1.09 ratio
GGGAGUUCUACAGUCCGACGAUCAUUCAGAAUCAUUUUGUGGACGAAUAUGAUCCAACAAUAGAGGAUUCCUACAGGAAGCAAGCCGUAAUUGAUGGAGAAACCUGUCUCUUGGAUAUUCUCGACACAGCAGGUCAAGAGGAGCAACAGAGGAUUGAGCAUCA,0.265 ratio
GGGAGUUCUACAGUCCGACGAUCGAAUACCAAAGUGAAGGACUUUGUGUCAUUCAGUAAAAUUUUCUUUUUUCAUAUCCUAAGCCGCUCCCAUUCCCUCACCUUUUCAAUCAGAAUUAACAAAUUCAAGCCUUCAGUAAAGUACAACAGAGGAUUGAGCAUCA,0.354 ratio
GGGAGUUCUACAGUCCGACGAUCGAGCAAAAACACAGGGAAGAACUGGAGCAAUUGAAGCAAUUGACUUUCAAGGACAGUAAGACCGAUUCUGUUGCUGUUAACAUUUCAAACUUGGUACUUGAGAAUCAACCACCUCGGAUUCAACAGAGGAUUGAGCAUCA,0.235 ratio
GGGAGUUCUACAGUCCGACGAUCGACAGAAAGUACCACCUAAAGACAUACAGACAAUGCUGUGUUGGGACUGAGCUGGCCGACUGGAUGAUACAGCAGACAUCCUGUGUUCACUCGCGGACUCAAGCUGUUGGCAUGUGGCAACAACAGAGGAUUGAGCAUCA,0.107 ratio
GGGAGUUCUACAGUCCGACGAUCUGUUUUUUUAUAGCUGUUUGUAUAAUAUGUGAGUAUUUUAUAGUAUGUUAGUUUUUAACACCGUAAGUGCUGUAAAAUAUACUUCUUUUGUAUUCAAUUAAUCCUUUUUAAUUUUUUUUGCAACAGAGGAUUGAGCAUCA,9.64 ratio

# Study 5
# Target: Myc proto-oncogene protein, bHLH-zipper, MAX partner unstated (MYC, Homo sapiens, UniProt P01106, residues 368-449)
# Sequence of UniProt P01106 (368-449, looked up): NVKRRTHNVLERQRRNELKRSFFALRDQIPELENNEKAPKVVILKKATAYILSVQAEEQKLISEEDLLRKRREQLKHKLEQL
# Technique: protein-binding microarray
# Molecule type: double-stranded DNA, one strand shown
# Medium: in vitro
# Tested at: not given
# Notes: k-mer, scored over probes, only values ≥0.25
# Reading: higher = stronger binding
Oligonucleotide,E-score
CATGCGAC,0.411
AAGGCGTG,0.288
CGTGCTGC,0.362
ACATGCCC,0.331
AGACCATG,0.376
GGCGTGAC,0.314
CTCCCACC,0.275
GAGCACAC,0.377
CGTGGGGA,0.299
TGCGGACA,0.277
AAACATGC,0.358
ATGGCGGG,0.252
ACACGCCA,0.32
CATGTAAC,0.254
CGAGCACA,0.329
CACGTGTA,0.494
GACCTCGC,0.287

# Some of these lines once more (study 3):
Oligonucleotide,E-score
AGGTAGAG,-0.103
TCACCCGA,0.0894
GGCGGTAA,0.0953
AGTACTAA,-0.152
AGTCTCGA,-0.0724
